Published values from different studies.
Each line is one published result; not all experiments were run side by side. Several values in a cell are separate wells, animals, samples, runs or records.
ALK: ALK tyrosine kinase receptor (ALK, Homo sapiens, UniProt Q9UM73)

Cc1[nH]nc2c1N=C(c1ccccc1Cl)c1cnc(N3CCOCC3)cc1N2
inhibition (ALK; enzyme activity, inhibitor; 0.5 µM): 70%

Cc1cccc(O[C@H]2CCC[C@@H](C(C)CNCc3ccncc3)C2)c1 (relative stereo)
inhibition (ALK; cell-free assay; 10 µM): -5%

COc1cc(Nc2nccc(-c3cnn4nc(OC)ccc34)n2)cc(C(F)(F)F)c1
remaining binding (ALK (Homo sapiens, UniProt Q9UM73, C1156Y); binding; 1 µM): 100%

O=C=[N][Ru-4]123([n]4c5ccc(O)cc5c5c6c(c7cc(F)c[n+]1c7c54)C(=O)NC6=O)[S+]1CC[S+]2CC[S+]3CC1 (stereo not shown)
remaining activity (ALK; enzyme activity; 100 nM, human enzyme, with: 10 µM ATP; reference: untreated): 60%

COc1c(OCCCN2CCOCC2)ccc2c1N=C(NC(=O)c1cnc(N)nc1)N1CCN=C21
remaining activity (ALK; kinase activity, inhibitor; 1 µM; reference: untreated control): 124%

NC(=O)C[C@H]1CCc2sc3ncnc(O[C@H]4CC[C@H](N5CCOCC5)CC4)c3c21
inhibition (ALK; enzyme activity, inhibitor; 10 µM): 22%

COc1cc(N2CCN(C(=O)C3CCCN3)CC2)ccc1Nc1ncc(Cl)c(Nc2ccccc2P(C)(C)=O)n1 (stereo not shown)
remaining protein level (ALK tyrosine kinase receptor, EML4-ALK fusion (ALK, Homo sapiens, UniProt Q9UM73); degrader, immunoblotting; Ba/F3 ALK; 100 nM; reference: untreated): 60%

CNC(=O)C[C@H](Cc1ccc(C#N)cc1)NC(=O)c1cc(-c2ccc(CN[C@H](C)c3ccc(C)cc3)o2)ccc1Cl
activity vs control (ALK; enzyme activity, inhibitor; 1 µM): 135%

COCC12C(=O)NC3C4(C(OC)CC1O)C1CC5(O)C(OC)C(O)C(OC(C)=O)(C1C5OC(=O)c1ccccc1)C3(O)C(OC)C24 (stereo not shown)
remaining activity (ALK; kinase activity, inhibitor, ProQinase kinase profiling; 25 µM; reference: control): 101% and 97%

C=CC(=O)N1Cc2nc(-c3cc(-c4cc(Cl)cnc4Cl)c(F)cc3F)n(-c3ccncn3)c2C1
inhibition (ALK; cell-free assay; 1 µM): 2.4%

CN1CC[C@@H](COc2cnc(C#N)cc2-c2ccn3nc(NC(=O)C4CC4)cc3c2)C1
inhibition (ALK; enzyme activity, inhibitor; 1 µM): 28%

C=CC(=O)Nc1cccc(-c2cnc3[nH]cc(C(=O)NC(C)(C)C)c3n2)c1
inhibition (ALK; kinase activity; 0.1 µM): 9% and 14%

C[C@H]1CN(C(=O)c2cn(-c3ccnc(N)n3)c3cc(C#CC4(O)CCCCC4)ccc23)CCN1
inhibition (ALK; enzyme activity, inhibitor, FRET; 1 µM): -1%

Some of these lines once more:
CN1CC[C@@H](COc2cnc(C#N)cc2-c2ccn3nc(NC(=O)C4CC4)cc3c2)C1
inhibition (ALK; enzyme activity, inhibitor; 1 µM): 28%
